Measured values of several laboratories.
Compare with care: the assays were run in different laboratories. Several values in a cell are separate wells, animals, samples, runs or records. ± marks the error that the study gave.

`COC(=O)C[C@](O)(CCCC(C)(C)OC(C)=O)C(=O)O[C@@H]1C(OC)=C[C@]23CCCN2CCc2cc4c(cc2[C@H]13)OCO4`: tissue concentration “not detected” (CD1 mouse, brain; oral, 1 mg/kg, 24 h, below quantification limit 1.00 ng/mL).
`Nc1ccc(-c2ccccc2)cc1OC(=O)NC1CCCCC1`: “log hydrolysis rate constant” -2.11 (rat plasma).
`CC(C)[C@H](NC(=O)CNC(=O)[C@H](CCC(N)=O)NC(=O)[C@H](C)N)C(=O)O` — result for “subjects with serious adverse events”: 0% (human; 10 mg/kg single dose).
With `CN(C)C(CNC(=O)Nc1cc(C(F)(F)F)ccc1N1CCOCC1)c1ccncc1` (stereo not drawn) the serum cholesterol was 68 mg/dL (mouse, serum; intraperitoneal, 240 mg/kg single dose).
With `CCOP(=O)(OCC)OCCCCOC(=O)CC1=C(C)/C(=C/c2ccc([S+](C)[O-])cc2)c2ccc(F)cc21` (stereo not drawn) the Tmax was 30 min (rat, blood; oral, 50 mg/kg).
`CC(C)(CCCC/C=C/CCCCCC(C)(C)C(=O)O)C(=O)O` — result for “plasma protein binding”: over 99.8% (mice plasma).
`CC(C)[C@H](NC(=O)CNC(=O)[C@H](CCC(N)=O)NC(=O)[C@H](C)N)C(=O)O`: “subjects with unrelated AE” 37.5% (healthy male volunteers; intravenous, 90 mg/kg/h, 2 h, together with: LPS 2 ng/kg).
For `[11CH3]n1c(=O)n(CCCO)c(=O)c2c1nc(Oc1cccc(OC(F)(F)F)c1)n2Cc1ccc(Cl)cc1`, the tracer uptake was 2.59 ± 0.5 %ID/g (ex vivo biodistribution; Sprague Dawley rat, kidney; 5 min post injection).
`CC[C@H](C)[C@H](NC(=O)[C@H](Cc1ccccc1)NC(=O)[C@H](CC(=O)O)NC(=O)[C@@H]1CCCNC(=O)NCCC[C@H](NC(=O)[C@H](CC(C)C)NC(=O)[C@H](CCCNC(=N)N)NC(=O)[C@H](CCSC)NC(=O)[C@H](C)N)C(=O)N[C@@H](CCCCN)C(=O)N[C@@H](Cc2ccccc2)C(=O)N[C@@H](Cc2ccccc2)C(=O)N1)C(=O)N[C@@H](CC(C)C)C(=O)N[C@@H](CCC(N)=O)C(=O)N[C@@H](CCCNC(=N)N)C(=O)N[C@@H](CCCCN)C(=O)N[C@@H](CCCCN)C(=O)O` has a helicity of 31.5% (circular dichroism; 20% TFE in PBS; 200 µM, pH 7.4, 25 °C).
`CC(C)C[C@@H](NC(=O)[C@H](NC(=O)[C@H]1CCCN1)[C@H](C)O)C(=O)N[C@H](Cc1c[nH]cn1)C(=O)N[C@@H](C(=O)N[C@H](Cc1c[nH]cn1)C(=O)N[C@H](CC(N)=O)C(=O)N[C@H](CCCNC(=N)N)C(=O)N[C@H](CCCNC(=N)N)C(=O)N[C@H](CCCNC(=N)N)C(=O)N[C@H](CCCNC(=N)N)C(=O)N[C@H](CCCNC(=N)N)C(N)=O)[C@H](C)O` — result for tolerability: “not toxic” (Beagle dog; oral, 20 or 50 mg/kg single, 3 and 30 mg/kg daily, 3 months).
`CC[C@H](C)[C@@H]1NC(=O)[C@H](CCCCN)NC(=O)[C@H](CCCCN)NC(=O)[C@H](Cc2ccc(O)cc2)NC(=O)[C@H](CC(C)C)NC(=O)[C@@H]2CCCN2C(=O)[C@H](C)NC(=O)CNC(=O)CNC(=O)[C@H](CO)NC(=O)CNC(=O)CNC(=O)[C@H](CO)NC(=O)[C@H](CCC(=O)O)NC(=O)[C@H](CC(C)C)NC(=O)[C@H](CC(C)C)NC(=O)[C@H](CCCCN)NC(=O)[C@H](CCCCN)NC(=O)[C@H]([C@@H](C)CC)NC(=O)[C@H]([C@@H](C)CC)NC(=O)[C@H](CCCCN)NC(=O)[C@H](CCCCN)NC(=O)[C@H](Cc2ccc(O)cc2)NC(=O)[C@H](CC(C)C)NC(=O)[C@@H]2CCCN2C(=O)[C@H](C)NC(=O)CNC(=O)[C@@H](NC(=O)CN)CSSC[C@@H](C(=O)N[C@@H](CCC(=O)O)C(=O)N[C@@H](CO)C(N)=O)NC(=O)[C@H](CC(C)C)NC(=O)[C@H](CCCCN)NC(=O)[C@H](CCCCN)NC(=O)[C@H]([C@@H](C)CC)NC1=O`: “remaining intact peptide” 52 ± 4.9% (25% human serum; 50 µM, 24 h; reference: 0 h control).
`C[C@H]1C(OC(=O)C(Cl)Cl)O[C@@H]2O[C@@]3(C)CC[C@H]4[C@H](C)CCC1[C@@]24OO3` (stereo partly drawn) has a dead embryos of 0 count (Tg(fli1:EGFP) zebrafish embryos; 50 µg/mL, up to 48 hpf).
Under “tissue uptake ratio”, `CCNc1cc2[o+]c3cc(NCC)c(C)cc3c(-c3ccccc3C(=O)OCCOCC[18F])c2cc1C` is recorded as 29.5 (rat; 120 min; reference: heart over blood).
For `[3H]c1sc(C)nc1C=C(C)C1CC2C(CCCC(C)C(O)C(C)C(=O)C(C)(C)C(O)CC(=O)O1)N2CCO` (stereo not drawn), the AUC was 645 ± 82.6 ng·h/mL (CD2F1 mouse, tumour-bearing, plasma; intravenous, 1.2 mg/kg).
With `COc1cc(NC(=O)C(=O)c2c(C)n(Cc3ccc(Cl)cc3)c3ccc(C)cc23)ccn1` the C0 was 2210 ng/mL and 2910 ng/mL and 2590 ng/mL and 2200 ng/mL and 2080 ng/mL (male cynomolgus monkey, plasma; intravenous, 1 mg/kg).
`[2H]C([2H])([2H])C([2H])([2H])C([2H])([2H])OC(C(=O)OC1CCNCC1)(c1ccccc1)c1ccccc1` — result for “adverse drug reactions”: 0% (measured: otitis media; healthy Japanese male; oral, 12 mg once daily, 16 days).
`CC[C@H](C)C(=O)N1CCC(NC(=O)Nc2ccc(OC(F)(F)F)c(F)c2)CC1` — result for “subjects with laryngitis TEAE”: 0% (healthy volunteers; oral, 16 mg single dose).
With `CC(C)C[C@H](NC(=O)[C@H](CCCCN)NC(=O)[C@H](CCC(=O)O)NC(=O)[C@H](C)NC(=O)[C@@H](NC(=O)[C@H](CCCCN)NC(=O)[C@H](CC(=O)O)NC(=O)[C@H](Cc1ccc(O)cc1)NC(=O)[C@H](Cc1ccccc1)NC(=O)[C@H](C)NC(=O)[C@H](CCCCN)NC(=O)[C@H](CC(C)C)NC(=O)[C@H](Cc1c[nH]c2ccccc12)NC(=O)[C@@H](N)CC(=O)O)C(C)C)C(=O)N[C@@H](CCCCN)C(=O)N[C@@H](CCC(=O)O)C(=O)N[C@@H](C)C(=O)N[C@@H](Cc1ccccc1)C(=O)N1CCC[C@H]1C(=O)N[C@@H](CC(=O)O)C(=O)N[C@@H](Cc1c[nH]c2ccccc12)C(=O)N[C@@H](C)C(=O)N[C@@H](CCCCN)C(=O)N[C@@H](C)C(=O)N[C@@H](C)C(=O)N[C@@H](Cc1ccc(O)cc1)C(=O)N[C@@H](CC(=O)O)C(=O)N[C@@H](CCCCN)C(=O)N[C@@H](C)C(=O)N[C@@H](C)C(=O)N[C@@H](CCC(=O)O)C(=O)N[C@@H](CCCCN)C(=O)N[C@@H](C)C(=O)N[C@@H](CCCCN)C(=O)N[C@@H](CCC(=O)O)C(=O)N[C@@H](C)C(=O)N[C@@H](C)C(=O)O` the clearance was 0.117 mL/min/kg (cynomolgus monkey female, plasma; intravenous infusion, 75 mg/kg, day 1, 30 min infusion).
The tissue uptake of `C=Cc1cc(O)cc2nc(-c3ccc(O)c([76Br])c3)oc12` is reported as 0.17 ± 0.03 %ID/g (female C57BL/6 mouse, lung; 3 h, high dose).
`C/C(=N\OCCCN1CCCCC1)c1ccc(C(F)(F)F)cc1` gave a scaled CLint of 145 mL/min/kg (metabolic stability; mouse, liver microsomes).
For `CC(=CCC(O)C(C)=Cc1csc(C)n1)CC=CC(C)C(O)C(C)C(=O)C(C)(C)C(O)CC(=O)O` (stereo not drawn), the Cmax was 30.1 ± 15.4 ng/mL (human, plasma; intravenous infusion, 42 mg/m2 KOS-1584, 3 h infusion, cycle 1).

A few entries again:
`COC(=O)C[C@](O)(CCCC(C)(C)OC(C)=O)C(=O)O[C@@H]1C(OC)=C[C@]23CCCN2CCc2cc4c(cc2[C@H]13)OCO4`: tissue concentration “not detected” (CD1 mouse, brain; oral, 1 mg/kg, 24 h, below quantification limit 1.00 ng/mL).
For `CC(=CCC(O)C(C)=Cc1csc(C)n1)CC=CC(C)C(O)C(C)C(=O)C(C)(C)C(O)CC(=O)O` (stereo not drawn), the Cmax was 30.1 ± 15.4 ng/mL (human, plasma; intravenous infusion, 42 mg/m2 KOS-1584, 3 h infusion, cycle 1).
